Assay results from different studies.
Numbered parts are unrelated; each lists some results of a single study.

Sample 1 — method: protein-binding microarray; molecule type: double-stranded DNA, one strand shown; matrix: in vitro; tested at: 2200 nM top; setting: 60-bp whole probe; added: salmon DNA 0.4 mg/ml; baseline: random background probes; direction: higher = stronger binding
Target: Interferon regulatory factor 7, full length, phosphomimetic (IRF7, Homo sapiens, UniProt Q92985, residues 1-503, S471D/S472D/S475D/S476D/S477D/S483D/S484D/S487D)
Residues (chain): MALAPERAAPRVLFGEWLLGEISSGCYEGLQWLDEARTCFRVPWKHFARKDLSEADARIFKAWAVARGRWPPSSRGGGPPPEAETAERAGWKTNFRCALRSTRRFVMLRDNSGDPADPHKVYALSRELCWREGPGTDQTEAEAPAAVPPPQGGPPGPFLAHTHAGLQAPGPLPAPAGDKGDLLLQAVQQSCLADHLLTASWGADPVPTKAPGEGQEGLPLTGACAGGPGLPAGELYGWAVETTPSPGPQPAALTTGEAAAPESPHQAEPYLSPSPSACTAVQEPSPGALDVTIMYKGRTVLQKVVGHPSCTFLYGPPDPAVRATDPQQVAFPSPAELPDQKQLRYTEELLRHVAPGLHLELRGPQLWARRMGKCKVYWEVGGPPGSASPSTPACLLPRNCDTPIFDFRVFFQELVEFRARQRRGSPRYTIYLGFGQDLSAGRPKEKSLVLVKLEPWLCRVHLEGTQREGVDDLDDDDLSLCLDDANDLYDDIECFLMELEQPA
For `GCCTAGCACTTATTTAGGATAGAACTATAGTGCTAGGTCTTGATTCGCTTGACGCTGCTG`, “fitted relative affinity” read -0.15 z-score.
Under “fitted relative affinity”, `GCCTAGCACTTGGGACTGGGTATCGGTTAGTGCTAGGTCTTGATTCGCTTGACGCTGCTG` is recorded as -0.507 z-score.
For `GCCTAGCACGCCGGTTTCGGTTCCGGGACGTGCTAGGTCTTGATTCGCTTGACGCTGCTG`, “fitted relative affinity” read 13.3 z-score.

Sample 2 — method: universal PBM; molecule type: double-stranded DNA, one strand shown; matrix: in vitro; tested at: not given; direction: higher = stronger binding
Target: Sal-like protein 4, full length isoform B (SALL4, Homo sapiens, UniProt Q9UJQ4-2, residues 1-616)
Setting: 8-mer, flanks averaged, mean of replicates
With `AATAAACA` the E-score was 0.37.
The E-score of `AACCCTAA` is reported as 0.00467.
For `CTCGAACA`, the E-score was 0.0299.

Single results of other studies
G3BP1 C-terminal RGG region: Ras GTPase-activating protein-binding protein 1, C-terminal RGG region (G3BP1, Homo sapiens, UniProt Q13283)
Chain of UniProt Q13283 (whole entry, looked up): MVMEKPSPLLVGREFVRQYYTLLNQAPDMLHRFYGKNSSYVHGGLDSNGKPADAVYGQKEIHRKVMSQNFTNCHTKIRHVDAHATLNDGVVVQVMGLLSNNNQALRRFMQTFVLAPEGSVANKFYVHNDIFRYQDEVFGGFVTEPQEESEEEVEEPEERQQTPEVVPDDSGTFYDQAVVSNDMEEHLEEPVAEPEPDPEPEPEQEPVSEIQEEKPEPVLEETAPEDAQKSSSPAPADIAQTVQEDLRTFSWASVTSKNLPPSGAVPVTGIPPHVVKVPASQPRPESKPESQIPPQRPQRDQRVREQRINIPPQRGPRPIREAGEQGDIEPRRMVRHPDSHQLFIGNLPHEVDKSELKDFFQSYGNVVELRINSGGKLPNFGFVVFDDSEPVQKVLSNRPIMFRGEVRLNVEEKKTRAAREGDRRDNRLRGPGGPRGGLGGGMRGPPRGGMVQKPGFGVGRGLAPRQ
`GGGAGUUCUACAGUCCGACGAUCUUGUGGCUGAGAGACAGUUUGCAAAGGAACAACAUACAGAUGGGACACUAAAGGAAGUUGGAGAAGAUUAUCAAAUCGCAAUCCCAGAUUUGGAAUUCUCGGGUGUCAAGG` gave a log2 enrichment of -0.289 (G3BP1 C-terminal RGG region; RNA Bind-n-Seq; RNA, in vitro; 1 µM, whole 134-nt RNA, ends assumed, added: 150 mM KCl; baseline: input library, higher = stronger binding).
For `PhoQ, residues 284 288 289 292 302 303 GNNTDL`, the fold induction was 3.15 (PhoP, residues 12 14 15 18 19 TTLRV (Escherichia coli, UniProt P23836); Sort-seq, item: YFP reporter; E. coli; PhoQ-PhoP variant library, added: 10 µM Mg2+; baseline: high Mg2+ state, higher = stronger signaling).
`GGGAGUUCUACAGUCCGACGAUCGUCCUGUGCUACACAUCGUAUGUACCGAAUCGGUUUUUUUGGUUUUUUUGGUUUUUGGAAAGUAUUAUGUUACGCCGUUCGGAUCUGCACUGGAAUUCUCGGGUGUCAAGG` gave a log2 enrichment of -1.33 (G3BP1 C-terminal RGG region; RNA Bind-n-Seq; RNA, in vitro; 1 µM, whole 134-nt RNA, ends assumed, added: 150 mM KCl; baseline: input library, higher = stronger binding).

Some of these lines once more (sample 2):
With `AATAAACA` the E-score was 0.37.
